Experimental data of several laboratories.
± marks the error that the study gave.
TACR1: Substance-P receptor (TACR1, Homo sapiens, UniProt P25103)
Chain of UniProt P25103 (whole entry, looked up): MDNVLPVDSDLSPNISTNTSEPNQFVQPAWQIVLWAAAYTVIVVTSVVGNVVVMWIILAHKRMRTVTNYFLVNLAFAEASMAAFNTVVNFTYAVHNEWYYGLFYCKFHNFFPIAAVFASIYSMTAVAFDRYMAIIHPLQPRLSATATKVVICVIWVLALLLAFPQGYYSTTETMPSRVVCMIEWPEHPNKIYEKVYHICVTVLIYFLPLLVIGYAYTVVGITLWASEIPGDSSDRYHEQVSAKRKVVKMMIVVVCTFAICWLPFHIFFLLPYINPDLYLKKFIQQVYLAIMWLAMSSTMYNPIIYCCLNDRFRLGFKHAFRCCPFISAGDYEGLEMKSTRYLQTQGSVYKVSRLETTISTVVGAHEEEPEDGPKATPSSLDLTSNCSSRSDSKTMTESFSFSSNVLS

Cc1[nH]nc2c1N=C(c1ccccc1Cl)c1cnc(N3CCOCC3)cc1N2  inhibition (TACR1; cell-free assay; 10 µM): 0%
CSCC[C@H](NC(=O)[C@H](CC(C)C)NC(=O)CNC(=O)[C@@H](NC(=O)[C@H](Cc1ccccc1)NC(=O)[C@H](CO)NC(=O)[C@H](CC(=O)O)NC(=O)[C@@H](NC(=O)[C@H](CCCCN)NC(=O)[C@@H](N)Cc1c[nH]cn1)[C@@H](C)O)C(C)C)C(N)=O  Emax (Substance-P receptor, with miniGs/q (TACR1, Homo sapiens, UniProt P25103); miniGs/q recruitment, BRET; HEK293; 30 min; relative to: 10 µM substance P): 85 ± 1%
O=C1c2sc(-c3ccc(N4CCC(CO)CC4)nc3F)nc2CCN1c1cccnc1  inhibition (TACR1; ligand displacement, radioligand; 1 µM): 16%
CSCC[C@H](NC(=O)[C@H](CC(C)C)NC(=O)CNC(=O)[C@H](Cc1ccccc1)NC(=O)[C@H](Cc1cccc(C(F)(F)F)c1)NC(=O)[C@@H](N)CCC(N)=O)C(N)=O  population (TACR1; ligand binding, 19F-NMR; LMNG/CHS micelles; 80 µM, pH 7.5, 298 K, mtfF-labelled SP variants): ~5%
CNC(=O)C[C@H](Cc1ccc(C#N)cc1)NC(=O)c1cc(-c2ccc(CN[C@H](C)c3ccc(C)cc3)o2)ccc1Cl  inhibition (TACR1; agonist response, antagonist; human cells; 10 µM, NK1 antagonist): 32%
C[Si](C)(C)C[C@@H](CN)CC(=O)O  inhibition (TACR1; ligand displacement, radioligand; 75 µM): 11%
COc1ccc(S(=O)(=O)N2CCc3ccccc3C2)cc1N1CCN(C(=O)c2ccc(F)cc2C(F)(F)F)CC1  inhibition (TACR1; cell-free assay; 1 µM): -12.2%
COCC(=O)N1CCc2cc(-c3csc(NC(=O)c4cc(OC)cc(OC)c4)n3)ccc21  inhibition (TACR1; ligand displacement, radioligand; 10 µM): 7%
